Results pooled from the literature.
Compare with care: the assays were run in different laboratories. ± gives the spread as reported.
CTSL: Procathepsin L (CTSL, Homo sapiens, UniProt P07711)
ERN1 RNase domain: Serine/threonine-protein kinase/endoribonuclease IRE1, RNase domain (ERN1, Homo sapiens, UniProt O75460)
EGLN1: Egl nine homolog 1 (EGLN1, Homo sapiens, UniProt Q9GZT9)
PDGFRB: Platelet-derived growth factor receptor beta (PDGFRB, Homo sapiens, UniProt P09619)
Nucleoside transporter 1: Nucleoside transporter 1 (Plasmodium vivax, UniProt A5K8B0)
KDR: Vascular endothelial growth factor receptor 2 (KDR, Homo sapiens, UniProt P35968)
HDAC10: Polyamine deacetylase HDAC10 (HDAC10, Homo sapiens, UniProt Q969S8)

Structure (SMILES) | target | test | test system | conditions | IC50 [µM]
NCCCCCCN1N=C(c2ccc(NC(=O)N3Cc4ccncc4C3)cc2)CC(c2cccc3ncccc23)C1=O (centres unmarked) | NAMPT (Homo sapiens, UniProt P43490) | enzyme activity, inhibitor |  |  | 0.0002
CCOC(=O)N1CCC(Oc2nc3c(c(=O)n(C)c(=O)n3C)n2Cc2cccc(C)c2)CC1 | HSD17B4 (Homo sapiens, UniProt P51659) |  |  |  | > 57
O=C1C2=C(Nc3ccccc3SC2c2ccc(O)c(O)c2)c2ccccc21 (racemic) | Cytochrome b (MT-CYB, Homo sapiens, UniProt P00156) | enzyme activity, inhibitor |  |  | > 5
CC(C)CCN(CCc1ccccc1)c1nc(C#N)nc(N2CCOCC2)n1 | CTSL | enzyme activity, inhibitor, fluorescence |  |  | 0.086
NC1CCC(Nc2nccc(-c3cccnc3Oc3cccc4c(NS(=O)(=O)C5CCC5)cccc34)n2)CC1 (centres unmarked) | ERN1 RNase domain | RNase activity, inhibitor |  | together with: XBP1 mini-substrate | 0.042 ± 0.005
CC(=O)NCC(=O)N[C@@H](CC(=O)O)C(=O)N[C@@H](Cc1ccc(O)cc1)C(=O)N[C@@H](CO)C(=O)N[C@@H](Cc1cnc[nH]1)C(=O)N[C@H]1CSSC[C@@H](C(=O)N[C@H](C(=O)N[C@@H](Cc2ccc(O)cc2)C(=O)N2CCC[C@H]2C(=O)N[C@@H](CC(=O)O)C(=O)N2CCC[C@H]2C(=O)N[C@@H](CCC(=O)O)C(=O)NCC(=O)NCC(=O)NCC(N)=O)[C@@H](C)O)NC(=O)[C@H](CCCCN)NC(=O)[C@H](Cc2c[nH]c3ccccc23)NC(=O)[C@H](Cc2c[nH]c3ccccc23)NC(=O)[C@@H]2CCCN2C(=O)[C@H](Cc2ccc(O)cc2)NC(=O)[C@H](Cc2ccc(O)cc2)NC(=O)[C@H](CCCNC(=N)N)NC(=O)[C@H](CC(C)C)NC(=O)[C@@H]2CCCN2C(=O)[C@H](CO)NC1=O | Angiotensin-converting enzyme (Mus musculus, UniProt P09470) | inhibitor |  |  | 3.98
O=C(NCCc1ccc(OS(=O)(=O)O)c(Br)c1)/C(Cc1cc(Br)c(O)c(Br)c1)=N/O | Ryanodine receptor 1, with FKBP12 (RYR1, Oryctolagus cuniculus, UniProt P11716) | binding, antagonist | rabbit skeletal muscle SR vesicles | 3.5 h, pH 7.4, 37 °C, together with: [3H]ryanodine 1 nM | 29
O=C(NCc1ccccc1)c1cc(S(=O)(=O)NCc2ccccc2)ccc1Cl | Ectonucleoside triphosphate diphosphohydrolase 2 (Homo sapiens, UniProt Q9Y5L3) | enzyme activity, inhibitor, absorbance |  |  | 2.24
O=C(O)/C=C/C(=O)NNC(=O)c1cnc2ccccc2c1 | EGLN1 | inhibitor, AlphaScreen |  | bimodal curve, rough estimate, together with: 2 µM 2-oxoglutarate | > 300
CN1CCc2cc(O)c(O)cc2C(c2ccccc2)C1 (centres unmarked) | Carbamate kinase (Giardia intestinalis, UniProt A8BB85) | enzyme activity, ATP luminescence |  |  | 5.8
O=C1O[C@H]([C@@H](O)c2ccc(O)cc2)c2cccc(O)c21 | MAL12 (Saccharomyces cerevisiae S288c, UniProt P53341) | enzyme activity, inhibitor, absorbance |  |  | > 100
COc1cc2nccc(Oc3cc(F)c(NC(=S)NC4CC4)c(F)c3)c2cc1C(N)=O | PDGFRB |  |  |  | 0.162
CCCc1nn(-c2ccccc2)c(O)c1-c1nc2ccccc2[nH]c1=O | JAK3 (Homo sapiens, UniProt P52333) | enzyme activity, inhibitor, ADP detection |  |  | 0.02 to 0.028
[N-]=[N+]=NCCC(=O)NCCCC[C@@H]1NC(=O)[C@@H](Cc2ccccc2)NC(=O)[C@H](CC(=O)O)NC(=O)CNC(=O)[C@H](CCCNC(=N)N)NC1=O | Integrin alpha-V/beta-3 (Homo sapiens, UniProt P05106+P06756, del719-788) | ligand displacement, ELISA |  |  | 0.00081
COc1cccc(CN(CCC(C)C)c2nc(C#N)nc(N3CCOCC3)n2)c1 | CTSL | enzyme activity, inhibitor, fluorescence |  |  | 0.006
CC(C)=CCN=C(N)NCCC[C@@H](NC(=O)CCCc1ccc(O)cc1)C(=O)N[C@@H](Cc1ccccc1)C(O)CC(=O)N[C@@H](Cc1ccc(O)cc1)C(=O)O (stereo in doubt) | MMP12 (Homo sapiens, UniProt P39900) | enzyme activity, inhibitor |  |  | 2.3
O=C(Nc1cccc(-c2nc3ncccc3o2)c1)c1cccc(F)c1 | Nucleoside transporter 1 | [3H]adenosine uptake | target-expressing yeast |  | 0.0095 ± 0.0037
COC(=O)c1cc2c(Oc3ccc(NC(=S)NC4CC4)c(Cl)c3)ccnc2cc1OC | KDR |  |  |  | 0.0281
Cc1cnc(Nc2cc(C)c(C)c(C)c2)nc1Nc1ccc2oc(=O)[nH]c2c1 | TYK2 (Homo sapiens, UniProt P29597) | enzyme activity, inhibitor |  | together with: ATP 1 mM | 0.103
O=S(=O)(Nc1cc(F)c(Oc2ncccc2-c2ccnc(N[C@H]3CCCNC3)n2)cc1Cl)c1ccccc1Cl | ERN1 RNase domain | RNase activity, inhibitor |  | together with: XBP1 mini-substrate | 2 ± 0.1
Cn1cc(C(=O)C(=O)Nc2ccc(C(=O)N3CCCC3)cc2)c2ccccc21 | Nucleoside transporter 1 | [3H]adenosine uptake | target-expressing yeast |  | 0.0317 ± 0.0076

Structure (SMILES) | target | test | test system | conditions | IC50 [µM]
CC(C)(C)NCCCNC(=O)c1ccnc(Br)c1 | UHRF1 (Homo sapiens, UniProt Q96T88) | methyl-lysine reader binding, inhibitor, AlphaScreen |  |  | > 100
NC(c1ccccc1)(c1ccccc1)c1ccccc1 | KCNN4 (Homo sapiens, UniProt O15554) | ion current, inhibitor, patch clamp |  |  | 5.3
O=C(O)c1ccc(Cn2sc3ccccc3c2=O)cc1 | HDAC10 | enzyme activity, inhibitor |  |  | > 10
N=C(N)NCCCC(N)C(=O)NCC(=O)NC(CCCNC(=N)NCCCSCC1OC(n2cnc3c(N)ncnc32)C(O)C1O)C(N)=O (centres unmarked) | PRMT7 (Homo sapiens, UniProt Q9NVM4) | enzyme activity, inhibitor |  |  | 0.831
NC(=O)c1ccc(-c2nc(-c3ccc4c(c3)OCCO4)c(-c3ccccn3)[nH]2)cc1 | CSNK1G3 (Homo sapiens, UniProt Q9Y6M4) | target engagement in cells, BRET |  |  | > 30
COC(=O)C1=CNC=C(C(=O)OC)C1c1ccc(F)c(C(F)(F)F)c1 | KCNN4 (Homo sapiens, UniProt O15554, T250S/V275A) | ion current, inhibitor, patch clamp |  |  | 2
Oc1c(C(Nc2nccs2)c2cccc(OCc3ccccc3)c2)ccc2cccnc12 (centres unmarked) | Genome polyprotein, protease (Dengue virus type 2, UniProt P14340) | enzyme activity, inhibitor, fluorescence |  |  | 2.99
Cc1cc(C(=O)NCCNC(=O)c2cccc(COc3ccccc3C(N)=O)c2)n[nH]1 | PARP2 (Homo sapiens, UniProt Q9UGN5) | enzyme activity, inhibitor |  |  | 0.012
O=C(NO)c1ccc(Cn2sc3ccccc3c2=O)cc1 | HDAC10 | enzyme activity, inhibitor |  |  | > 10
CCOCCCOc1cc2nccc(Oc3ccc(NC(=S)NC4CC4)c(Cl)c3)c2cc1C(N)=O | PDGFRB |  |  |  | 0.0569
CCn1c(-c2cc(NC(=O)c3cnccn3)n[nH]2)cc2ccc(OC)cc21 | CSNK2A2 (Homo sapiens, UniProt P19784) |  |  |  | 0.11 ± 0.00035
COc1cc2nccc(Oc3ccc(NC(=S)Nc4ccc(F)cc4)c(Cl)c3)c2cc1C(N)=O | PDGFRB |  |  |  | 0.0247
CC[C@H](C)[C@H](NC(=O)[C@H](CC(C)C)NC(=O)[C@H](CCCNC(=N)N)NC(=O)c1ccc(CN2CCN(C)CC2)cc1)C(=O)N[C@@H](Cc1ccccc1)C(N)=O | Cyclin-A2, with CDK2 (CCNA2, Homo sapiens, UniProt P20248) | binding to cyclin groove, inhibitor, fluorescence polarization competition |  |  | 7.92 ± 1.39
CC(/C=C/c1ccc(OCC(=O)Nc2ccc(F)cc2)cc1)=N/O | PPARG (Homo sapiens, UniProt P37231) | ligand displacement, TR-FRET |  |  | 10.9
CNCCCN1c2ccccc2CCc2ccc(Cl)cc21 | E3 ubiquitin-protein ligase NEDD4, HECT domain (Homo sapiens, UniProt P46934) | ubiquitination, inhibitor, TR-FRET |  | 1 h preincubation | > 100
COc1cc2nccc(Oc3ccc(NC(=S)N(C)C)c(Cl)c3)c2cc1C(N)=O | KDR |  |  |  | 0.0786
CN(C(=O)c1ccn2ncc(-c3ccc(C(N)=O)cc3)c2c1)c1ccc(C#N)cn1 | PKN2 (Homo sapiens, UniProt Q16513) | enzyme activity, inhibitor |  |  | > 10
CC(C)CCC[C@@H](C)[C@H]1CC[C@H]2[C@@H]3CC=C4C[C@@H](OS(=O)(=O)O)CC[C@]4(C)[C@H]3CC[C@]12C | Prothrombin (F2, Homo sapiens, UniProt P00734) | enzyme activity, inhibitor |  | together with: unfractionated heparin 0 µM | 141 ± 21.8
Cc1ccc(NC(=O)CNS(=O)(=O)c2nc(-c3ccc(OC(F)(F)F)cc3)cc(C(F)(F)F)n2)cc1 | WRN (Homo sapiens, UniProt Q14191) | ATPase activity, inhibitor, ADP-Glo |  | together with: ATP 1 mM | 0.894
O=CCCC(=O)O | EGLN1 | enzyme activity, inhibitor, mass spectrometry |  |  | 2900
